Results gathered from unrelated publications.
Compare with care: the assays were run in different laboratories. Several values in a cell are separate wells, animals, samples, runs or records. Numbers after ± are the reported error. Converted amounts (≈) assume the structure as drawn.

CCCN1CCC(Oc2cc(Nc3nc(Nc4cccc(F)c4C(N)=O)c4cc[nH]c4n3)c(OC)cc2Cl)CC1
selectivity (Trypanosoma brucei; unit not given; baseline: pEC50 T. brucei minus pTC50 HepG2): 1.2

C=CC[C@@H]1c2ccc(OC)c(OC)c2CN2CCc3cc4c(cc3[C@H]12)OCO4
relative wound size (Staphylococcus aureus; P2rx7+/+ mice, skin wound infection; dose not given, day 2; baseline: day 0): 0.63 and 0.62 and 0.86 and 0.78 and 1.15

COC(=O)[C@@H](NCc1cc2ccccc2nc1OCc1ccccc1)C(C)C
growth (Pseudomonas aeruginosa; 128 µg/mL, without pentamidine; baseline: control): 97.1%

CN1CCN(Cc2ccc(-c3cc4ncnc(Nc5ccc(OCc6cccc(F)c6)c(Cl)c5)c4s3)o2)CC1
selectivity (Trypanosoma brucei; unit not given; baseline: pEC50 T. brucei minus pTC50 HepG2): 0.9

Cc1cc(OC(C)C)ccc1C(=O)C(C)(C)NC(=O)c1sccc1C
EC50 (Venturia inaequalis; mycelial growth; PSA medium; 20 °C): 0.79 µg/mL (≈ 2.2 µM)

COc1ccc2c(-c3nc(-c4c(C)[nH]c5ccc(OC)cc45)cs3)c[nH]c2c1
IC50 (Human papillomavirus 16; viral genome amplification; differentiated W12E): ~1000 nM

O=C1CN(c2nc(-c3ccccc3)c3cc(Cl)ccc3n2)c2ccccc2N1
maximal activity (Mus musculus; gene silencing, high-content imaging; LDR reporter GFP cells; retest run 1): 21%

Oc1cc(O)c2c(c1)O[C@H](c1cc(O)c(O)c(O)c1)[C@@H](O)C2
initial rate of glycolytic pH drop (Streptococcus mutans; MIC, first 15 min, together with: glucose 1%): 0.037 pH units/min

CCCCN1C[C@H]2CC[C@@H]3[C@](C)(COC(C)=O)[C@H](OC(C)=O)CC[C@@]3(C)[C@@H]2C[C@@H]1C1=CCOC1=O
inhibition (Human coronavirus 229E; cytopathic effect; MRC5; 25 µM, corrected for cytotoxicity): 60.7%

CCCCCCCCCC(=O)N[C@@H](Cc1c[nH]c2ccccc12)C(=O)N[C@H](CC(N)=O)C(=O)N[C@@H](CC(=O)O)C(=O)N[C@@H]1C(=O)NCC(=O)N[C@@H](CCCN)C(=O)N[C@@H](CC(=O)O)C(=O)N[C@H](C)C(=O)N[C@@H](CC(=O)O)C(=O)NCC(=O)N[C@H](CO)C(=O)N[C@@H]([C@H](C)CC(=O)O)C(=O)N[C@@H](CC(=O)c2ccccc2N)C(=O)O[C@@H]1C
MIC (Staphylococcus aureus; SH1000; together with: sphingomyelin, molar ratio 1): 1 µg/mL

Br.N=c1n(CC(=O)c2ccc([N+](=O)[O-])cc2)c2ccccc2n1Cc1ccccc1Cl
maximal activity (Mus musculus; gene silencing, high-content imaging; LDR reporter GFP cells; retest run 2): 63%

CCn1c(=O)c(-c2cc[nH]n2)cc2c(C)nc(N)nc21
viral RNA level (Enterovirus A71; viral entry, RT-qPCR; 0.8 µM, 1 h, 37 °C; baseline: untreated): decreased

C[C@@]12COCO[C@@H]1CC[C@]1(C)[C@@H]2CC[C@@H]2CN(Cc3ccco3)[C@@H](C3=CCOC3=O)C[C@H]21
inhibition (Human coronavirus 229E; cytopathic effect; MRC5; 25 µM, corrected for cytotoxicity): 54.8%

O=[N+]([O-])c1ccc(-c2ccc(/C=N/Nc3nc(N4CCCCC4)nc(N4CCCCC4)n3)o2)cc1
maximal activity (Mus musculus; gene silencing, high-content imaging; LDR reporter GFP cells; retest run 2): 26%

O=C1C(Cl)=C(n2cncn2)C(=O)c2ccccc21
zone of inhibition (Aspergillus niger; ITCC 7787; 10 µg/mL): 16 mm

CC1(C)S[C@@H]2[C@H](NC(=O)[C@H](N)c3ccccc3)C(=O)N2[C@H]1C(=O)O
MIC (Pseudomonas aeruginosa; clinical isolate RKI-No_482/15): > 16 µg/mL

COc1ccnc(CSC(N)=Nc2ccccc2OC)c1.Cl
maximal activity (Mus musculus; gene silencing, high-content imaging; LDR reporter GFP cells; retest run 1): 99%

O=c1[nH]c(CCl)nc2scc(-c3cccc(F)c3)c12
selectivity index (Trypanosoma brucei brucei; 449 Lister 427 bloodstream form; 24 h; baseline: EC50 HEK293 over EC50 T. brucei): 5 ± 1.6

CC(=Nc1ccc(N=Cc2cnccn2)cc1)N(C)C
worm count (Necator americanus; infected hamsters, small intestine; oral, 50 mg/kg single, 6 h): 0.3 ± 0.3

[H]/N=C(\N/C(=N/[H])NCCCCCCNC(=N)NC(=N)Nc1ccc(Cl)cc1)Nc1ccc(Cl)cc1
final pH (Streptococcus mutans; MIC, 120 min, initial pH 7.4): > 5.5

CC1(C)OC[C@@]2(C)[C@H]3CC[C@@H]4CN(Cc5ccc(I)cc5)[C@@H](C5=CCOC5=O)C[C@H]4[C@]3(C)CC[C@H]2O1
inhibition (Human coronavirus 229E; cytopathic effect; MRC5; 25 µM, corrected for cytotoxicity): 84.7%

CCCCCCCNC1=C(n2cncn2)C(=O)c2ccccc2C1=O
zone of inhibition (Aspergillus niger; ITCC 7787; 10 µg/mL): 8 mm

COc1cc(N2CCN(C(C)C)CC2)ccc1Nc1nc(Nc2ccc(F)cc2C(N)=O)c2cc[nH]c2n1
selectivity (Trypanosoma brucei; unit not given; baseline: pEC50 T. brucei minus pTC50 HepG2): 1.4

CN[C@H](CC(C)C)C(=O)N[C@H]1C(=O)N[C@@H](CC(N)=O)C(=O)N[C@H]2C(=O)N[C@H]3C(=O)N[C@H](C(=O)N[C@H](C(=O)O)c4cc(O)cc(O)c4-c4cc3ccc4O)[C@H](O)c3ccc(c(Cl)c3)Oc3cc2cc(c3O[C@@H]2O[C@H](CO)[C@@H](O)[C@H](O)[C@H]2O[C@H]2C[C@](C)(N)[C@H](O)[C@H](C)O2)Oc2ccc(cc2Cl)[C@H]1O
MIC range (Streptococcus mutans; broth microdilution; clinical isolate): 0.5 µg/mL (≈ 0.345 µM)

O=S(=O)(CCOCc1ccc(-c2ccc3ncnc(Nc4ccc(OCc5cccc(F)c5)c(Cl)c4)c3c2)o1)c1ccccc1
selectivity (Trypanosoma brucei; unit not given; baseline: pEC50 T. brucei minus pTC50 HepG2): > 1.8

N=C(N)c1ccc(OCc2cccc(COc3ccc(C(=N)N)cc3)c2)cc1
MIC of compound in combination (Escherichia coli; checkerboard; mcr-2 polymyxin-resistant; concentration not given, 20 h, together with: rifampicin): 6.25 µg/mL

CN[C@H](CC(C)C)C(=O)N[C@H]1C(=O)N[C@@H](CC(N)=O)C(=O)N[C@H]2C(=O)N[C@H]3C(=O)N[C@H](C(=O)N[C@H](C(=O)O)c4cc(O)cc(O)c4-c4cc3ccc4O)[C@H](O)c3ccc(c(Cl)c3)Oc3cc2cc(c3O[C@@H]2O[C@H](CO)[C@@H](O)[C@H](O)[C@H]2O[C@H]2C[C@](C)(N)[C@H](O)[C@H](C)O2)Oc2ccc(cc2Cl)[C@H]1O
MIC50 (Streptococcus pneumoniae; penicillin-resistant, 10 isolates; serum 25%): 0.5 µg/mL (≈ 0.345 µM)

CC(C)n1ncc2c(C(=O)NCC3(C)CNC3)cc(C3CC3)nc21
plaque reduction (Enterovirus A71; viral replication; Tainan/4643/1998; 30000 nM): 100%

COc1ccc(CN2C[C@H]3CC[C@@H]4[C@]5(C)COC(C)(C)O[C@@H]5CC[C@@]4(C)[C@@H]3C[C@@H]2C2=CCOC2=O)cc1
inhibition (Human coronavirus 229E; cytopathic effect; MRC5; 25 µM, corrected for cytotoxicity): 62.2%

C[n+]1cc(NC(=O)c2ccc3ccc4ccc(C(=O)Nc5cc6ccccc6[n+](C)c5)nc4c3n2)cc2ccccc21
downregulated genes (Trypanosoma brucei; RNA-seq; Lister 427 bloodstream form; 2 × EC50, 4 h, log2 FC 1, FDR 0.05; baseline: untreated): 155 genes

N=C(N)c1ccc(OCc2cc(COc3ccc(C(=N)N)cc3)cc(-c3ccccc3)c2)cc1
MIC in combination (Escherichia coli; BW25113; concentration not given, lowest-FICI combination, together with: novobiocin): 3.13 µg/mL

Nc1nc(-c2ccccc2)nc2[nH]nc(Nc3ccc(C(F)(F)F)cc3)c12
clinical score (coxsackievirus B3; 31-1-93, NMRI mice, CVB3 chronic myocarditis; oral, 100 mg/kg twice daily, day 1, dosed days 0 to 6, score scale 0 to 7; direction not given): 0

CS(=O)(=O)CCNCc1cc(-c2cc3c(Nc4ccc(OCc5cccc(F)c5)c(Cl)c4)ncnc3s2)cs1
selectivity (Trypanosoma brucei; unit not given; baseline: pEC50 T. brucei minus pTC50 HepG2): > 2

CC(=O)OC[C@@]1(C)[C@H]2CC[C@@H]3CN(Cc4ccc(F)cc4)[C@@H](C4=CCOC4=O)C[C@H]3[C@]2(C)CC[C@H]1OC(C)=O
inhibition (Human coronavirus 229E; cytopathic effect; MRC5; 25 µM, corrected for cytotoxicity): 77.5%

COc1cc(C)c(NC(=O)CN(C)C)cc1Nc1nc(Nc2cccc(F)c2C(N)=O)c2cc[nH]c2n1
selectivity (Trypanosoma brucei; unit not given; baseline: pEC50 T. brucei minus pTC50 HepG2): > 1.8

CC(C)C[C@@H](C=O)NC(=O)[C@H](CC(C)C)NC(=O)[C@H](CC(C)C)NC(=O)OCc1ccccc1
AC50 (Mus musculus; gene silencing, high-content imaging; LDR reporter GFP cells; retest run 2): 1260 nM

CO[C@H]1/C=C/O[C@@]2(C)Oc3c(C)c(O)c4c(c3C2=O)C2=NC3(CCN(CC(C)C)CC3)NC2=C(NC(=O)/C(C)=C\C=C\[C@H](C)[C@H](O)[C@@H](C)[C@@H](O)[C@@H](C)[C@H](OC(C)=O)[C@@H]1C)C4=O
IC90 (Mycobacteroides abscessus; bacterial growth; subsp. massiliense 097 clinical isolate; rough, slow grower): 5990 nM

CC(=O)OC[C@@]1(C)[C@H]2CC[C@@H]3CN(Cc4ccc(C(C)(C)C)cc4)[C@@H](C4=CCOC4=O)C[C@H]3[C@]2(C)CC[C@H]1OC(C)=O
inhibition (Human coronavirus 229E; cytopathic effect; MRC5; 25 µM, corrected for cytotoxicity): 82.8%

O=C(O[C@H]1CN[C@H](C#Cc2cc3ncnc(Nc4ccc(OCc5cccc(F)c5)c(Cl)c4)c3s2)C1)N1CCOCC1
selectivity (Trypanosoma brucei; unit not given; baseline: pEC50 T. brucei minus pTC50 HepG2): 1.4

Cc1nc2[nH]c(=O)n(O)c(=O)c2s1
growth inhibition (Digitaria adscendens; 750 g/ha, 21 days, post-emergence, glasshouse pot): 0%

Cc1ccc(/C=[N+](\[O-])c2ccc(N(C)C)cc2)c2nsnc12
maximal activity (Mus musculus; gene silencing, high-content imaging; LDR reporter GFP cells; retest run 2): 41%

O=c1[nH]c(CCl)nc2scc(-c3ccccc3F)c12
selectivity index (Trypanosoma brucei brucei; 449 Lister 427 bloodstream form; 24 h; baseline: EC50 HEK293 over EC50 T. brucei): 5 ± 1.6

Br.CN(C)c1nc(=Nc2cccc(Cl)c2)ss1
maximal activity (Mus musculus; gene silencing, high-content imaging; LDR reporter GFP cells; retest run 2): 71%

O=C1OC[C@H]2OC(O)[C@H](O)[C@@H](O)[C@@H]2OC(=O)c2cc(O)c(O)c(O)c2-c2c(O)c(O)c3oc(=O)c4c(c(O)c(O)c5oc(=O)c2c3c54)-c2c1cc(O)c(O)c2O (mixture of isomers)
initial rate of glycolytic pH drop (Streptococcus mutans; MIC, first 15 min, together with: glucose 1%): 0.032 pH units/min

O=C(O)CCCCCN1C(=O)/C(=C\c2ccc(-c3ccc(Cl)cc3)o2)SC1=S
maximal activity (Mus musculus; gene silencing, high-content imaging; LDR reporter GFP cells; retest run 1): 51%

O=C(Nc1ccc(Oc2ccc3nc(NC(=O)c4ccccc4)[nH]c3c2)cc1)Nc1cc(C(F)(F)F)ccc1F
selectivity (Trypanosoma brucei; unit not given; baseline: pEC50 T. brucei minus pTC50 HepG2): 0.5

For quick reference, copied from above:
Br.CN(C)c1nc(=Nc2cccc(Cl)c2)ss1
maximal activity (Mus musculus; gene silencing, high-content imaging; LDR reporter GFP cells; retest run 2): 71%

O=C1OC[C@H]2OC(O)[C@H](O)[C@@H](O)[C@@H]2OC(=O)c2cc(O)c(O)c(O)c2-c2c(O)c(O)c3oc(=O)c4c(c(O)c(O)c5oc(=O)c2c3c54)-c2c1cc(O)c(O)c2O (mixture of isomers)
initial rate of glycolytic pH drop (Streptococcus mutans; MIC, first 15 min, together with: glucose 1%): 0.032 pH units/min

O=C(O)CCCCCN1C(=O)/C(=C\c2ccc(-c3ccc(Cl)cc3)o2)SC1=S
maximal activity (Mus musculus; gene silencing, high-content imaging; LDR reporter GFP cells; retest run 1): 51%
